Measured values of several laboratories.
A part holds a random share of what one study measured. Substitutions count along the parent as printed.
Sequence of UniProt Q8WVN8 (whole entry, looked up): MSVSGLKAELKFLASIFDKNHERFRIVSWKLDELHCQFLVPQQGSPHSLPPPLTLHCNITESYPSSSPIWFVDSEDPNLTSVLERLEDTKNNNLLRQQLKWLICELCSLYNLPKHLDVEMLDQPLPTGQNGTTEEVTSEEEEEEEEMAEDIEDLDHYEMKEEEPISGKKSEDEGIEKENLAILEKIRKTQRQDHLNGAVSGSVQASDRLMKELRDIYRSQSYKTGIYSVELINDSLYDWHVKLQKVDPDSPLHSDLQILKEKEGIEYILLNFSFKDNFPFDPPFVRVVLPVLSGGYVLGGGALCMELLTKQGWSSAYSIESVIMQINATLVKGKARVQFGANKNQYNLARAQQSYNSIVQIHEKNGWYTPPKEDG
Sequence of UniProt Q96LR5 (whole entry, looked up): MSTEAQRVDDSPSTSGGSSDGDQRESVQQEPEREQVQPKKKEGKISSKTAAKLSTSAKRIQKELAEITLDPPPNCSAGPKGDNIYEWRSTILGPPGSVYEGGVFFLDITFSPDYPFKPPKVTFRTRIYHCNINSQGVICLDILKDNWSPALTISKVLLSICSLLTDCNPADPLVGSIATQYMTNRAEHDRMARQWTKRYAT
Sequence of UniProt P51965 (whole entry, looked up): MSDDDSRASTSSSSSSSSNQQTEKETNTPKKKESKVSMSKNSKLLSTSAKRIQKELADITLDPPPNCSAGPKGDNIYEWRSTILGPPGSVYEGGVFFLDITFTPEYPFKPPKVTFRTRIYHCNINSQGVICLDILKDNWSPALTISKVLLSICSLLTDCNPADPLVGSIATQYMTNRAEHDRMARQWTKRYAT
Sequence of UniProt P62256 (whole entry, looked up): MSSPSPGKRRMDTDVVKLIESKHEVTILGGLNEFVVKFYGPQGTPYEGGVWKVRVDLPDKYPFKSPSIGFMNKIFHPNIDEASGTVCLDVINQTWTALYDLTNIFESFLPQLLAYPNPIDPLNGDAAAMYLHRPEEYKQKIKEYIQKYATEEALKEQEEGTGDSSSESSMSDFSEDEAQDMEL
Sequence of UniProt O14933 (whole entry, looked up): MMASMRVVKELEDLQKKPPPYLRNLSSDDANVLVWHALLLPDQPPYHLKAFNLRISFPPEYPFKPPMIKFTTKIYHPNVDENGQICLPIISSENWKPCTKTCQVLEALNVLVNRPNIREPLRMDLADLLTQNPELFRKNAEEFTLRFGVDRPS
Sequence of UniProt P61088 (whole entry, looked up): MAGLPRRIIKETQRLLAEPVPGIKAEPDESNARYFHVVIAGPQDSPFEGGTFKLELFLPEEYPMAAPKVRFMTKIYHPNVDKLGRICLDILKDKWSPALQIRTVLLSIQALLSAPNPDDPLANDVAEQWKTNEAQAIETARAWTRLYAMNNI
Sequence of UniProt Q5VVX9 (whole entry, looked up): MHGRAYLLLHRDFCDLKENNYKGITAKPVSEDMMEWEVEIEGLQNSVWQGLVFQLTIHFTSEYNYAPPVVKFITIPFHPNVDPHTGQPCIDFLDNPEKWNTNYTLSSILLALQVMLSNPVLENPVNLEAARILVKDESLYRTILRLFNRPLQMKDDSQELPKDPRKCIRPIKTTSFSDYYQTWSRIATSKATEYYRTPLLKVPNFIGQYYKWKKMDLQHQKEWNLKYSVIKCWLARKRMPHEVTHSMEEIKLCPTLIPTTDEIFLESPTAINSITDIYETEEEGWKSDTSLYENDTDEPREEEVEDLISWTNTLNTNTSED
Sequence of UniProt Q13404 (whole entry, looked up): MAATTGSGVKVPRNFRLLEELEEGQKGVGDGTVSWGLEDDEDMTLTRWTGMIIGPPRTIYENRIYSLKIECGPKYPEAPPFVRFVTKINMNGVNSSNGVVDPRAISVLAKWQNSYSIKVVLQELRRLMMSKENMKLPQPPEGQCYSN
Sequence of UniProt Q15819 (whole entry, looked up): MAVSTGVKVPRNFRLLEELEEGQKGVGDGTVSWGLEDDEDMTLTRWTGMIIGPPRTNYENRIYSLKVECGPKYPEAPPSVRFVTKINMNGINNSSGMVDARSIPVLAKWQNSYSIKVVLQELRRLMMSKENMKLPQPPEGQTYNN
Sequence of UniProt P60604 (whole entry, looked up): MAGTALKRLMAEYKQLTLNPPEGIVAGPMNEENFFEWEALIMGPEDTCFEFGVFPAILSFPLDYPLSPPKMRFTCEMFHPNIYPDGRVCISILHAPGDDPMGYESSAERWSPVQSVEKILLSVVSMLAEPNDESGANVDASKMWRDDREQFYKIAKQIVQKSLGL
Sequence of UniProt P49427 (whole entry, looked up): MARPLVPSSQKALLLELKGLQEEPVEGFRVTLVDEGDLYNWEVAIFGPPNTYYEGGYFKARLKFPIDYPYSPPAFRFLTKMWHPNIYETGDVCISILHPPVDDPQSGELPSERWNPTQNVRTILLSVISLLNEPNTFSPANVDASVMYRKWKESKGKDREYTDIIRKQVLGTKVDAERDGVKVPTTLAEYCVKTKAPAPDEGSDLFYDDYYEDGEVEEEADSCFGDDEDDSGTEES

Block 1
Target: Ras GTPase-activating protein-binding protein 1, C-terminal RGG region (G3BP1, Homo sapiens, UniProt Q13283)
Sequence of UniProt Q13283 (whole entry, looked up): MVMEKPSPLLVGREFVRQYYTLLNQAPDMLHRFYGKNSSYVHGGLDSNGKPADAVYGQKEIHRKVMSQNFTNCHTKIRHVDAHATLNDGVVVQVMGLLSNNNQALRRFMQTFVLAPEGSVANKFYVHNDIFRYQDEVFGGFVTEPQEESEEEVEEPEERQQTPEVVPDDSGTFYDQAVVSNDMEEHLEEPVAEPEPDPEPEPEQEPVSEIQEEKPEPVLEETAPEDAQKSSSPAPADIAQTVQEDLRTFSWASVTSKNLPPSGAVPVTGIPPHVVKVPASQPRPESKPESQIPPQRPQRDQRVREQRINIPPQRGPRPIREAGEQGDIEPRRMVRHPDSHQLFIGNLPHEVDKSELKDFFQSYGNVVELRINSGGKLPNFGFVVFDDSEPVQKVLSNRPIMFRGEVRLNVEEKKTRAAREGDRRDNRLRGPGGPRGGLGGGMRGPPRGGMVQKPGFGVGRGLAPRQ
Method: RNA Bind-n-Seq
Molecule type: RNA
Sample: in vitro
Concentration: 1 µM
Setting: whole 134-nt RNA, ends assumed
Together with: 150 mM KCl
Reference: input library
Reading: higher = stronger binding
Strand | log2 enrichment
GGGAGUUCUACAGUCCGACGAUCUGUCCUGUGCUUUCACAUUCUUUCUGCAUGGAGAAAGUAAUGUAUGCACAAGUGUGGAGAUUGCCCAGCACCAGCCAAUUUAUUUGAUCAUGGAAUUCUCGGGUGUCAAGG | -1.33
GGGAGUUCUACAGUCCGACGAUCAAGUCCUGUGCUACACAUCGUAUGUACCGAAUCGGGAGGGAAAAAGGGUUUUUGGGAAAGUAUUAUGUUACGCCGUUCGGAUCUGCACUUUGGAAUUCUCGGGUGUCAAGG | 0.881
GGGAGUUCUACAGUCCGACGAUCAAGUCCUGUGCUACACAUCGUAUGUACCGAAUCGGGGUUUUGGUUUUGGGUUUUGGAAAGUAUUAUGUUACGCCGUUCGGAUCUGCACUUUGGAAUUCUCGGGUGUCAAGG | -1.55
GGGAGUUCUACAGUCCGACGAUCCACAGACAACACGCACCCACACAGACACAGAGGGAAGGGGUUGGGAUGGGGACAGGGUGCACAGCAGGGCGGGGUAGGACCCCAGCCCAUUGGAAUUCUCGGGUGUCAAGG | -1.06
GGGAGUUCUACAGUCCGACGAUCCUCAAGUCCUGUGCUACACAUCGUAUGUACCGAAUCGGUUUUUGGUUUGGUGGAAAGUAUUAUGUUACGCCGUUCGGAUCUGCACUUCCAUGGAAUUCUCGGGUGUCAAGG | -1.31
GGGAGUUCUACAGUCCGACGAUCUGGGAGGUGGAUUUUGUUUAUUUUUUUAGCUCAUUGCCAGGGGUGGGAAUUUUUUUUUAAUAUGUGUCAUGAAUAAAGUUGUUUUUGAAAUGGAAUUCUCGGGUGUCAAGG | 3.77
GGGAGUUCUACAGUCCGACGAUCUCAAGUCCUGUGCUACACAUCGUAUGUACCGAAUCGGGCCGGGCCGGGGCCGGGAAAGUAUUAUGUUACGCCGUUCGGAUCUGCACUUCCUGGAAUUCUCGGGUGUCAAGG | 0.0465
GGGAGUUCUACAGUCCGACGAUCUGGCCCUGGUGGCAUGCGGGGAGGAAGAGGUGGGCUCAUGGAUCGUGGUGGUCCCGGUGGAAUGUUCAGAGGUGGCCGUGGUGGAGACAGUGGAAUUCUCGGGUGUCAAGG | 2.14
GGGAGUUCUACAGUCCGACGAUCAGUCCUGUGCUACACAUCGUAUGUACCGAAUCGGGAAAAGGGGAAAAGGGAAAAGGGGAAAGUAUUAUGUUACGCCGUUCGGAUCUGCACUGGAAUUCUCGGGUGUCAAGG | 0.447
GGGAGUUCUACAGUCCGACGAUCCCUGUGCUACACAUCGUAUGUACCGAAUCGGGGCCCCCCGGGGCCCCCCGGCCCCCCGGGAAAGUAUUAUGUUACGCCGUUCGGAUCUGCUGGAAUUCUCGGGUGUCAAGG | -1.78

Block 2
Target: CCNB1, cyclin fold, Cln2 fusion (human)
Method: yeast growth competition, sequencing
Sample: yeast
Setting: strong parent motif
Reference: not given
Reading: higher = stronger binding
Parent: RBL2 docking peptide (human); STTRRRLFVENDS
Variant | normalised enrichment score
STTRRRLFVESDS [N11S] | 0.876
STTRRRLFVENDK [S13K] | 0.538
STCRRRLFVENDS [T3C] | 1.67
STTRRRLLVENDS [F8L] | 0.489
STTYRRLFVENDS [R4Y] | 1.37
SMTRRRLFVENDS [T2M] | 1.37
STTRARAFVENDS [R5A L7A] | 0.111
STTRRRLFVENIS [D12I] | 0.975
STTRRRLKVENDS [F8K] | 0.797
STTRRRLYVENDS [F8Y] | 0.0995
STTRRRLFVENCS [D12C] | -0.0545
STTRRNLFVENDS [R6N] | 0.0445
STTRRRLFVENDM [S13M] | 0.626
STARRRLFVENDS [T3A] | 0.734
STTRRRLFAENDS [V9A] | 1.26
STTRMRLFVENDS [R5M] | 1.06
STTRRRLFVDNDS [E10D] | 1.93
STTRRRLFVEEDS [N11E] | 1.11
STTRRRGFVENDS [L7G] | -0.384
STTRRVLFVENDS [R6V] | 0.999
STTRCRLFVENDS [R5C] | 0.814
STTRRRLFVYNDS [E10Y] | 0.382
STTRRFLFVENDS [R6F] | 1.53
STLRRRLFVENDS [T3L] | 1.66
SHTRRRLFVENDS [T2H] | 1.26

Block 3
Substance: RNF13 RING domain (UniProt O43567)
Sequence of UniProt O43567 (whole entry, looked up): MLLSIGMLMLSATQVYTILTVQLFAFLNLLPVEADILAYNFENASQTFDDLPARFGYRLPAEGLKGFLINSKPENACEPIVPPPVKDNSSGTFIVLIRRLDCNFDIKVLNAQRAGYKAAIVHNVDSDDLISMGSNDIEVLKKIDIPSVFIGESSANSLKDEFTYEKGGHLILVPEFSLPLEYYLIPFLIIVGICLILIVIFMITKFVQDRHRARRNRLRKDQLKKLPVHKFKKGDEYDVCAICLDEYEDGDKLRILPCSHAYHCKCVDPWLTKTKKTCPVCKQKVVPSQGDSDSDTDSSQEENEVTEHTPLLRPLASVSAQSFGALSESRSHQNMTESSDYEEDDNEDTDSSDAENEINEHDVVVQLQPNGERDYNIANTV
Method: yeast two-hybrid
Sample: yeast
Setting: mostly zero background
Reference: not given
Reading: higher = stronger interaction
target | lacZ reporter activity
UBE2N UBC core domain (UniProt P61088) | 5450
UBE2V1 UBC core domain (UniProt Q13404) | 0
UBE2G2 UBC core domain (UniProt P60604) | 8610
CDC34 UBC core domain (UniProt P49427) | 0
UBE2L6 UBC core domain (UniProt O14933) | 0
UBE2H UBC core domain (UniProt P62256) | 0
UBE2V2 UBC core domain (UniProt Q15819) | 0
UBE2Q2 UBC core domain (UniProt Q8WVN8) | 0
UBE2E1 UBC core domain (UniProt P51965) | 2430
UBE2E2 UBC core domain (UniProt Q96LR5) | 0
UBE2U UBC core domain (UniProt Q5VVX9) | 0

Block 4
Target: ABI1, truncated, D143A, DHFR fusion (Arabidopsis thaliana)
Method: DHFR PCA, deep sequencing
Sample: yeast
Setting: methotrexate growth selection, single substitutions
Together with: (+)-ABA 17 µM
Reference: wild-type fitted maximum
Reading: higher = stronger binding
Parent: PYL1, truncated, DHFR fusion (Arabidopsis thaliana); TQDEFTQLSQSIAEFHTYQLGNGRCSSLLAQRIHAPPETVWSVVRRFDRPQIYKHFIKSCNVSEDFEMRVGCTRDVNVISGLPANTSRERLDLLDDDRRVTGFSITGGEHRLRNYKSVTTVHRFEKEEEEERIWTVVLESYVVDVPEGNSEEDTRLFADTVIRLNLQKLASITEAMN
Variant | relative binding score [%]
G21S | 83.3
D75L | 91.2
L166G | -7.1
I12P | 5.08
A170C | 88.3
N177T | 92.6
V136L | 90.3
L156G | 57.1
I105W | -16.7
D95K | 18.7
E38C | 48.4
L28N | -15.8
T17L | 39.5
L164G | 49.6
Q31R | 68.7
E128P | 87.6
C60M | 6.91

Further values, each from its own experiment
Method: two-hybrid
Reference: out of 4 tests
Reading: higher = firmer interaction
T1: itself; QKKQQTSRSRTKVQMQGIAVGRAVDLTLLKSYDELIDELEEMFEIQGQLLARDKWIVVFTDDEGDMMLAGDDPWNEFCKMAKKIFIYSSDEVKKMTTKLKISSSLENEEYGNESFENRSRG
T2: itself; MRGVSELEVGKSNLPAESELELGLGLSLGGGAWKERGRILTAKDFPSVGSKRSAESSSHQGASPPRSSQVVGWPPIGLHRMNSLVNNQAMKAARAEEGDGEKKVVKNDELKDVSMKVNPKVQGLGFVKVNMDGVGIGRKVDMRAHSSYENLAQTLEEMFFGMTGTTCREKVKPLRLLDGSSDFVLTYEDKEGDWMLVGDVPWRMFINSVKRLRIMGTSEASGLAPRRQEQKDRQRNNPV
T3: itself; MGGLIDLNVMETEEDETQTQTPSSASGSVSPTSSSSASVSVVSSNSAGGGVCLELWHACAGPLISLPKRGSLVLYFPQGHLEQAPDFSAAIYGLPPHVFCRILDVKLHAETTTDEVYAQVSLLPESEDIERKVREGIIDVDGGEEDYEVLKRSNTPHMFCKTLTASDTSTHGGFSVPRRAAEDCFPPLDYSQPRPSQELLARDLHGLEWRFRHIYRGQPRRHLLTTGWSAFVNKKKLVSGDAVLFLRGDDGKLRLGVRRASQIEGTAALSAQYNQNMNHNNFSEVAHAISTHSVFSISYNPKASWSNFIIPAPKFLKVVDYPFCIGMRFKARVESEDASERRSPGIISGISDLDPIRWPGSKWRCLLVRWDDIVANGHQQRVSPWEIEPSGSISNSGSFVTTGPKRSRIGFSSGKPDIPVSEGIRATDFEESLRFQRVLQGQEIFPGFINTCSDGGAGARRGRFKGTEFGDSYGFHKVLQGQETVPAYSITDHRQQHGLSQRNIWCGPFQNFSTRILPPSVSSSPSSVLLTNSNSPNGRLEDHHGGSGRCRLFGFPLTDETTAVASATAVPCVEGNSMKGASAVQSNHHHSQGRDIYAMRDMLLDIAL
T4: itself; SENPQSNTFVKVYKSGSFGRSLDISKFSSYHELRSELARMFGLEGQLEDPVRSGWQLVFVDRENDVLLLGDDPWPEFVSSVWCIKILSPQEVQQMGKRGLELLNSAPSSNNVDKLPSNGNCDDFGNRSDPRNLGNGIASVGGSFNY
B1: ARF18 482-602 (Arabidopsis thaliana, UniProt Q9C5W9); chain QKKQQTSRSRTKVQMQGIAVGRAVDLTLLKSYDELIDELEEMFEIQGQLLARDKWIVVFTDDEGDMMLAGDDPWNEFCKMAKKIFIYSSDEVKKMTTKLKISSSLENEEYGNESFENRSRG
B2: IAA12 (Arabidopsis thaliana, UniProt Q38830); chain MRGVSELEVGKSNLPAESELELGLGLSLGGGAWKERGRILTAKDFPSVGSKRSAESSSHQGASPPRSSQVVGWPPIGLHRMNSLVNNQAMKAARAEEGDGEKKVVKNDELKDVSMKVNPKVQGLGFVKVNMDGVGIGRKVDMRAHSSYENLAQTLEEMFFGMTGTTCREKVKPLRLLDGSSDFVLTYEDKEGDWMLVGDVPWRMFINSVKRLRIMGTSEASGLAPRRQEQKDRQRNNPV
B3: ARF6 790-935 (Arabidopsis thaliana, UniProt Q9ZTX8); chain SENPQSNTFVKVYKSGSFGRSLDISKFSSYHELRSELARMFGLEGQLEDPVRSGWQLVFVDRENDVLLLGDDPWPEFVSSVWCIKILSPQEVQQMGKRGLELLNSAPSSNNVDKLPSNGNCDDFGNRSDPRNLGNGIASVGGSFNY
Substance | partner | positive tests
B1 (ARF18 482-602) | T1, itself | 0
B2 (IAA12) | T2, itself | 2
ETT (Arabidopsis thaliana, UniProt O23661) | T3, itself | 0
B3 (ARF6 790-935) | T4, itself | 0
